Measured values pooled from the literature.
Every numbered part comes from another study and shows a few of its results, in no order. Positions count from the first letter of the parent shown.

Series 1 — target: CCNA1, cyclin fold, Cln2 fusion (human); technique: yeast growth competition, sequencing; matrix: yeast; setting: weak parent motif; baseline: not given; direction: higher = stronger binding; measurement: normalised enrichment score
Starting sequence: CDC25A docking peptide (human); PPHRRRLLFACSP; partner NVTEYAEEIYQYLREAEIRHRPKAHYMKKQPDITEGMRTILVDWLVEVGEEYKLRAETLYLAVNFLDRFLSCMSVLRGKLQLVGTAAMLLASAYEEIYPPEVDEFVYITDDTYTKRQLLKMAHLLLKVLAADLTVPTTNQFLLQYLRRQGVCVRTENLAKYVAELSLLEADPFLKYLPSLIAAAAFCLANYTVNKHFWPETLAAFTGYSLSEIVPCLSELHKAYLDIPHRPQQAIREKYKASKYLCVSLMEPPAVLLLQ
P2L: 0.0791
C11V: 0.521
A10V: -0.00296
S12M: 0.221

Series 2 — technique: RNA Bind-n-Seq; form: RNA; matrix: in vitro; tested at: 365 nM; baseline: no-protein control; direction: higher = stronger binding; measurement: RBNS enrichment (R)
Target: RNA binding protein fox-1 homolog 2, RRM domain, GST-SBP tag (RBFOX2, Homo sapiens, UniProt O43251-10, residues 100-194)
Setting: natural RNA segment, single round, ends assumed
All sequences stand within: GGGAGUUCUACAGUCCGACGAUC … UGGAAUUCUCGGGUGCCAA
Residues (chain): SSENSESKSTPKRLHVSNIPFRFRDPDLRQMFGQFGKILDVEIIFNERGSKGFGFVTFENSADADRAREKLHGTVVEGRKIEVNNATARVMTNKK
UUUCAUUUGGUACCCUGUACCCCAGUGCCUCUGCGUCGCCUCCUUCUUGUGUGCCUUCUGAGCUGUUUCUUCAGCCUAGAAACUCCCUGCUCAAAGGCACCUUUGCUUUU: 0.337
CGAUUUUUGAUCAAUUCUUUAAUUUUGGAAGCCUAUAAUACAGUUUUCUAUUCUUGGAGAUAAAAAUUAAAUGGAUCACUGAUAUUUUAGUCAUUCUGCUUCUCAUCUAA: 0.498
ACCGCAAAGCCCCCAGUCUUCAUGCAGACCUUGAACCCUCCGUCACACCCGCACCAUGUACUCCCAGGAACCUCCCACCUCUAUACCACCCAUUAAGUGGCUGCUGACUU: 0.659
GGCAAACCCUGUUCAGGCUGGCUCGUAGGCCUGCCGCUUUGAUGGAGGAGGUAUUGUAAGCUUUCCAUUUUCUAUAAGAAAAAGGAAAAGUUGAGGGGGGGGCAUUAGUG: 0.634
CAUUUUAUUAGGGGUUGUGACAACAUUAUUAAACUUUUGUGUAUAUAAAGCCAGGUGUCUUAGCUAGAUAUAUUUCCAGUCUUUUAACUUUGACACUGUGAAGCUCUAAG: 0.343
ACUGUGAAACACUUAACAUAAGAACAAACGCAGCGUCUGGAUUCUUUCCAAGGAGAGCAGCUUUCUCCACAGGAACACAGUAACAAAAGAGGUCCGCCGCCAUCCACACC: 0.256
UUUUAAUUCAAUCAUACACACAUAAUCCUUUGUAAUCAUUUUUCUUUUAAGUGAGGAUAUCUACUGUCUGCUUCAUAGGGUGCUUUGCAAUAAAAUGAAAACGUAUUUAU: 0.421

Series 3 — technique: RNA Bind-n-Seq; form: RNA; matrix: in vitro; tested at: not given; baseline: input RNA pool; direction: higher = stronger binding; measurement: bound/input enrichment
Target: RING finger protein unkempt homolog, zinc fingers 1-6, GST-SBP tag (UNK, Homo sapiens, UniProt Q9C0B0, residues 30-357)
Sequence of UniProt Q9C0B0 (30-357, looked up): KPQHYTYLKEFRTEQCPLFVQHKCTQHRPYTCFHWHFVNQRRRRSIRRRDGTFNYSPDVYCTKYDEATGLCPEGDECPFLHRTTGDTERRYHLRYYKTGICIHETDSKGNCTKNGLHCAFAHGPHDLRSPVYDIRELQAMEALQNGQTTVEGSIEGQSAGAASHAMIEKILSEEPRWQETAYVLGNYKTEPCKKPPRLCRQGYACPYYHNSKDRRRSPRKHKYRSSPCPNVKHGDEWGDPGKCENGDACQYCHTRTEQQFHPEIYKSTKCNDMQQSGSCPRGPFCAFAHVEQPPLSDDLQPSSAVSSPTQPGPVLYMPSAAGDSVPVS
Setting: RNA with constant flanks, human and mouse sites, ends assumed
All sequences stand within: GGGAGUUCUACAGUCCGACGAUC … CAACAGAGGAUUGAGCAUCA
GUCUGCAAAAUGGCUCAAACCAGUUUACUGCAAGGGAAGCAGUUUUACUGUAGGGAGUGGGUUUUCCACAAGCUUCAGCAUUGCCUCCAGGAGAAAAGUAACUGCUGCAAUAGUGCUGUC: 0.266 ratio
GUGCUCCCUCGGGAUCUCUUCCAAAAGCUUUUCCGACAGGACCUGCUCGUGGCAAGUUUGUUUAGAAAUUUUUUAUUGGCAGAAAGAAUCAUGAGGUCAUAUAACUGCACCCCAGUAAGC: 0.551 ratio
UUUAGCUUCCUGGAGAGCCACAACAAGCUGGACAAAGACAACCUCUCCUACAUUGAGCACAUCUUUGAGAUCUCCCGCCGUCCUGACCUACUCACUAUGGUGGUUGACUACAGAACCCGU: 0.143 ratio
CCAGUGGAAGAAGGUGACCAAGGCACAGAGGUCAUCUGGCUCACGCAGCACGUGGAGCUGAGCUUUGGCCCUCUUCUUCCUUAAAACACAGUGACCCCACCCACAGCUGUGUCAACACAA: 0.183 ratio
GUUCUUAAAGAUGUGGGAUUGAAAAAAGAAGAUAUUGCAAUGUGGGAAGUAAAUGAAGCCUUUAGUCUGGUUGUACUAGCAAACAUUAAAAUGUUGGAGAUUGAUCCCCAAAAAGUGAAU: 0.325 ratio
GCAGGACGGGGAGGGACUGCGGCGGAGAUACCGGUCCCCGGGCAAAAGCAGGGACCGCGGUUUAGCUUCCAACGCGUGCUCUCUGGGCGGGGUGCGGCGGGGGAUGUGCCUGCCCAGUCC: 0.45 ratio
GGUAAGACUGAGGCACCAGUGAGUGAGCAAACCACUUUAGGCCAGGAGAAUUACAUAUUCUCUAGAGGCCAAGCAUCUGAUGAAAAGAGCCUGCCUAGAGAUUUUAUUCCGGCAGCACAU: 0.136 ratio
GAGAAUGGCUCUCUUCAACUUGGCGCUGAAGCUGUGGAAGGUGGUAGACAUCAGAAGGGGUUAGGCCGUGCAGUCUUUGAGCUGGAAAAUGGAGAGGCAGAGAUCUACGCUGACCUGUCA: 0.157 ratio

Mixed results
PhoQ, residues 284 288 289 292 302 303 ASTSDA
fold induction (PhoP, residues 12 14 15 18 19 AQALL (Escherichia coli, UniProt P23836); Sort-seq, measured: YFP reporter; E. coli; PhoQ-PhoP variant library, added: 10 µM Mg2+; baseline: high Mg2+ state, higher = stronger signaling): 6.59
